Measured values collected from several papers.
Technique: steady-state kinetics
B1: SULT1A3 (Homo sapiens, UniProt P0DMM9); chain MELIQDTSRPPLEYVKGVPLIKYFAEALGPLQSFQARPDDLLINTYPKSGTTWVSQILDMIYQGGDLEKCNRAPIYVRVPFLEVNDPGEPSGLETLKDTPPPRLIKSHLPLALLPQTLLDQKVKVVYVARNPKDVAVSYYHFHRMEKAHPEPGTWDSFLEKFMAGEVSYGSWYQHVQEWWELSRTHPVLYLFYEDMKENPKREIQKILEFVGRSLPEETMDFMVQHTSFKEMKKNPMTNYTTVPQELMDHSISPFMRKGMAGDWKTTFTVAQNERFDADYAEKMAGCSLSFRSEL
B2: PPIP5K2 (Homo sapiens, UniProt O43314); chain MSEAPRFFVGPEDTEINPGNYRHFFHHADEDDEEEDDSPPERQIVVGICSMAKKSKSKPMKEILERISLFKYITVVVFEEEVILNEPVENWPLCDCLISFHSKGFPLDKAVAYAKLRNPFVINDLNMQYLIQDRREVYSILQAEGILLPRYAILNRDPNNPKECNLIEGEDHVEVNGEVFQKPFVEKPVSAEDHNVYIYYPTSAGGGSQRLFRKIGSRSSVYSPESNVRKTGSYIYEEFMPTDGTDVKVYTVGPDYAHAEARKSPALDGKVERDSEGKEVRYPVILNAREKLIAWKVCLAFKQTVCGFDLLRANGQSYVCDVNGFSFVKNSMKYYDDCAKILGNIVMRELAPQFHIPWSIPLEAED
B3: enzyme (Agrobacterium fabrum, UniProt A9CEZ0); chain MHFETTKDGFTIAIGNRIILSHSPDKPAFFAGFGEERMDMYRGNFDIEDYVIERTALRHAEVSGDSVTLSSAPGQAPRLRLTLDGNAIRLTALDETINRLWLRVVAETDEHVWGGGEQMSYFDMRGRRFPLWTSEPGVGRDKTTEITFKSDVSGKAGGDYYNTNYPQPTWLSSRKYALHVETSAYSVFDFRNGDFHEIEIWAVPEKIEFFAGDSFADIVSALSLHFGRQPELPDWVYNGAIIGLKDGVNSFARLEKIRAAGTKVSGLWCEDWVGLRQTSFGARLFWDWQANDTRYPHLRQKIAELADQGIRFLGYVNPYLCVDGPLFPVAESAGYFATDVDGKTALVDFGEFDCGVVDFTNPAAADWFAEEIIGKNMLDFGLSGWMADFGEYLPIDIKLSNGVDAKLMHNAWPTLWAEVNAKGVESRGKTGEALFFMRAGFTGVQAHCPLIWGGDQSVDFSRHDGLVTVICGALSSGLMGNAYHHSDIGGYTSLFGNVRTAELIMRWTEMAAFTPVMRTHEGNRPRDNLQIDQDETVLAHFARMTAIYVALAPYLKSLSAEAAKTGLPVQRPLFLHYENEPQTYAVQDCYLYGADMLVAPVWKAGETQRSLYLPGHGEWVHLWSGKRHAGGRDITVETPLGEPAVFYRADSSHHRLFEQLRTIG
B4: TENT2 (Homo sapiens, UniProt Q6PIY7); chain MFPNSILGRPPFTPNHQQHNNFFTLSPTVYSHQQLIDAQFNFQNADLSRAVSLQQLTYGNVSPIQTSASPLFRGRKRLSDEKNLPLDGKRQRFHSPHQEPTVVNQIVPLSGERRYSMPPLFHTHYVPDIVRCVPPFREIAFLEPREITLPEAKDKLSQQILELFETCQQQISDLKKKELCRTQLQREIQLLFPQSRLFLVGSSLNGFGTRSSDGDLCLVVKEEPCFFQVNQKTEARHILTLVHKHFCTRLSGYIERPQLIRAKVPIVKFRDKVSCVEFDLNVNNIVGIRNTFLLRTYAYLENRVRPLVLVIKKWASHHQINDASRGTLSSYSLVLMVLHYLQTLPEPILPSLQKIYPESFSPAIQLHLVHQAPCNVPPYLSKNESNLGDLLLGFLKYYATEFDWNSQMISVREAKAIPRPDGIEWRNKYICVEEPFDGTNTARAVHEKQKFDMIKDQFLKSWHRLKNKRDLNSILPVRAAVLKR
B5: FNO G29S (Thermobifida fusca, UniProt Q47RA9); chain MIMIMASKSSPHDLPDVSGLSIAVLGGTSDQGRGLARRFAMAGHEVILGSRSAERAQAVAAELGEGLPVRGMDNAGAAEAGDVVIVAVPWDGHRALLESLKDVLAGKIVVDCVNPLGFDKRGAYALPVEEGSAAEQAAAILPDSRVVAAFHHVSAVLLLDPEVEKVDLDVLVLGDDREATDVVRALAARIPGVRGVYGGRLRNAHQVEAFTANLISINRRYKAHAGIRITDI
B6: enzyme (UniProt Q53796); chain MTEHPRAHTAHLRTARLELTPLDPAADARHLHHAYGDEEVMRWWTRPACADPAETERYLTSCAAAPGARLWTIRAPDGTVPGMAGLLGGTDVPGLTWLLRRDSWGHGYATEAAAAVVGHALEDGGLDRVEAWIEAGNRRSLAVAARVGLTERARLAQHYPHRPGPHEMVVLGKARAEEPLTTLAVITELPVRDVAATLRLVEAALGARTAFAIGDPPEFAEAALTPWSAGPRFRLAAVPGPGPVEPVRLHLDAAGTADSLHRRAVDAGARVDGPPVRRPWGRSEFVITLPEGHELTVSAPV
B7: protein (Thermotoga neapolitana, UniProt B9K712); chain MKMLYDLAKKRKTVRRFKKEKPPLEDLIYSLKVANEAPSGMNAQPWRFLIVEDEKLKGQIRRVCERSEKTFYENVRGRLKEWLDEKRFTWRKPFLKEAPYLLLVFSEKSAPYSRESVWLAVGYLLLALEEKGLGSVPYTPPDFREVEKLVNTPSELRLEVILPVGYPDDPKPKYPRNEVIVRYNTF
B8: AK1 (Homo sapiens, UniProt P00568); chain MEEKLKKTKIIFVVGGPGSGKGTQCEKIVQKYGYTHLSTGDLLRSEVSSGSARGKKLSEIMEKGQLVPLETVLDMLRDAMVAKVNTSKGFLIDGYPREVQQGEEFERRIGQPTLLLYVDAGPETMTQRLLKRGETSGRVDDNEETIKKRLETYYKATEPVIAFYEKRGIVRKVNAEGSVDSVFSQVCTHLDALK
B9: CMPK1 (Homo sapiens, UniProt P30085); chain MKPLVVFVLGGPGAGKGTQCARIVEKYGYTHLSAGELLRDERKNPDSQYGELIEKYIKEGKIVPVEITISLLKREMDQTMAANAQKNKFLIDGFPRNQDNLQGWNKTMDGKADVSFVLFFDCNNEICIERCLERGKSSGRSDDNRESLEKRIQTYLQSTKPIIDLYEEMGKVKKIDASKSVDEVFDEVVQIFDKEG
B10: genB3 (Micromonospora echinospora, UniProt Q2MG50); chain MDSANLTNRGLVERARRVTAAENYDIGTRFSAMIQSGEGAWLTDVEGNRYVDLTASSGTIILGHRNQAVTEAITRQIRDFGTAFASTLSVPRVELAERLCERYECAEKVVFHKTGSEGTAMAARLARAATGRELILSCGYHGWHEWQLAGETFGYQQTTGVVGFGYNEKALAKMLEAFGNEVAGVLISPELLYFDVEFYQRMYALCARYDVPFMMDEVYTGFRAGPKGVHGLGVPADVVVVSKGLANGHSLAAVMGRRDIIDAYDVSGIQGTYTREVPPMAAAMAVLDVLDTPGVYEHAEAMGRRLADGMREILTGEGIPNWVGGPALMFDTVLPNDDLGWEIYKTAHDFGVYFEDSGTQLVTTAFDEAAVDHALTAFRKATRQVIADRPDIAPTSGGELTEERKLDFAEEAFGGLLRDDERTNALIDETIEKVVNRDRSIKPVLIPAQN
B11: KMO (Homo sapiens, UniProt O15229); chain MDSSVIQRKKVAVIGGGLVGSLQACFLAKRNFQIDVYEAREDTRVATFTRGRSINLALSHRGRQALKAVGLEDQIVSQGIPMRARMIHSLSGKKSAIPYGTKSQYILSVSRENLNKDLLTAAEKYPNVKMHFNHRLLKCNPEEGMITVLGSDKVPKDVTCDLIVGCDGAYSTVRSHLMKKPRFDYSQQYIPHGYMELTIPPKNGDYAMEPNYLHIWPRNTFMMIALPNMNKSFTCTLFMPFEEFEKLLTSNDVVDFFQKYFPDAIPLIGEKLLVQDFFLLPAQPMISVKCSSFHFKSHCVLLGDAAHAIVPFFGQGMNAGFEDCLVFDELMDKFSNDLSLCLPVFSRLRIPDDHAISDLSMYNYIEMRAHVNSSWFIFQKNMERFLHAIMPSTFIPLYTMVTFSRIRYHEAVQRWHWQKKVINKGLFFLGSLIAISSTYLLIHYMSPRSFLRLRRPWNWIAHFRNTTCFPAKAVDSLEQISNLISR
Chain of UniProt P10635 (whole entry, looked up): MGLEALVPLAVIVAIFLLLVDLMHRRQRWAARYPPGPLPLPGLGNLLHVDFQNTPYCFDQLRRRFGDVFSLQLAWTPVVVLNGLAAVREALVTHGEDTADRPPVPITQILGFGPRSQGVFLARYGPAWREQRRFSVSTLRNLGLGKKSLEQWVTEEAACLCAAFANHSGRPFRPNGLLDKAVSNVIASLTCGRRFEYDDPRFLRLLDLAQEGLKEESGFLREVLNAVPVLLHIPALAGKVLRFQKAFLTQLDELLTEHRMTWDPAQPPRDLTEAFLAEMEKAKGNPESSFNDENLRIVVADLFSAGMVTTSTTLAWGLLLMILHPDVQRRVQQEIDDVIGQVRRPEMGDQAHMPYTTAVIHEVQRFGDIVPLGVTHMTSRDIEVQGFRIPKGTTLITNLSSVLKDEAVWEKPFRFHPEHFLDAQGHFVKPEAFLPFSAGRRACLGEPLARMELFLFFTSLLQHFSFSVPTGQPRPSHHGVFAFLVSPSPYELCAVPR
Chain of UniProt P46059 (whole entry, looked up): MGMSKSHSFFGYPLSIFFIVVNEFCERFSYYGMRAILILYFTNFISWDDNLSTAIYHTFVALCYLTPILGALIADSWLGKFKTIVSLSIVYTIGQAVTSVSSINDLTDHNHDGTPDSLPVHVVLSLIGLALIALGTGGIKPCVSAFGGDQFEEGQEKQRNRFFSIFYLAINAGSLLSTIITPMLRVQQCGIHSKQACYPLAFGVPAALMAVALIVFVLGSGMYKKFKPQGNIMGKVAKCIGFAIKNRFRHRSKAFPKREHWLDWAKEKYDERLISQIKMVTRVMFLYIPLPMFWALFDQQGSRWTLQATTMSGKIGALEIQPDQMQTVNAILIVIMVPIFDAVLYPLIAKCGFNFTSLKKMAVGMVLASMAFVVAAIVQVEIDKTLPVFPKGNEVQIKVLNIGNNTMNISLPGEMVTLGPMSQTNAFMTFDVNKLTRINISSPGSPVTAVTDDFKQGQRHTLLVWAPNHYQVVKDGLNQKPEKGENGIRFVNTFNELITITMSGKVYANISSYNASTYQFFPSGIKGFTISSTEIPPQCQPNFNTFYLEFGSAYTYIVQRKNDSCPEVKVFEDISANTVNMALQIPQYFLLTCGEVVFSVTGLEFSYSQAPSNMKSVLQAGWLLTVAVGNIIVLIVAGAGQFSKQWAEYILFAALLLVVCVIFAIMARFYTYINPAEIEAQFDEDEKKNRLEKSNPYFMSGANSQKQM
Chain of UniProt Q9ZGI2 (whole entry, looked up): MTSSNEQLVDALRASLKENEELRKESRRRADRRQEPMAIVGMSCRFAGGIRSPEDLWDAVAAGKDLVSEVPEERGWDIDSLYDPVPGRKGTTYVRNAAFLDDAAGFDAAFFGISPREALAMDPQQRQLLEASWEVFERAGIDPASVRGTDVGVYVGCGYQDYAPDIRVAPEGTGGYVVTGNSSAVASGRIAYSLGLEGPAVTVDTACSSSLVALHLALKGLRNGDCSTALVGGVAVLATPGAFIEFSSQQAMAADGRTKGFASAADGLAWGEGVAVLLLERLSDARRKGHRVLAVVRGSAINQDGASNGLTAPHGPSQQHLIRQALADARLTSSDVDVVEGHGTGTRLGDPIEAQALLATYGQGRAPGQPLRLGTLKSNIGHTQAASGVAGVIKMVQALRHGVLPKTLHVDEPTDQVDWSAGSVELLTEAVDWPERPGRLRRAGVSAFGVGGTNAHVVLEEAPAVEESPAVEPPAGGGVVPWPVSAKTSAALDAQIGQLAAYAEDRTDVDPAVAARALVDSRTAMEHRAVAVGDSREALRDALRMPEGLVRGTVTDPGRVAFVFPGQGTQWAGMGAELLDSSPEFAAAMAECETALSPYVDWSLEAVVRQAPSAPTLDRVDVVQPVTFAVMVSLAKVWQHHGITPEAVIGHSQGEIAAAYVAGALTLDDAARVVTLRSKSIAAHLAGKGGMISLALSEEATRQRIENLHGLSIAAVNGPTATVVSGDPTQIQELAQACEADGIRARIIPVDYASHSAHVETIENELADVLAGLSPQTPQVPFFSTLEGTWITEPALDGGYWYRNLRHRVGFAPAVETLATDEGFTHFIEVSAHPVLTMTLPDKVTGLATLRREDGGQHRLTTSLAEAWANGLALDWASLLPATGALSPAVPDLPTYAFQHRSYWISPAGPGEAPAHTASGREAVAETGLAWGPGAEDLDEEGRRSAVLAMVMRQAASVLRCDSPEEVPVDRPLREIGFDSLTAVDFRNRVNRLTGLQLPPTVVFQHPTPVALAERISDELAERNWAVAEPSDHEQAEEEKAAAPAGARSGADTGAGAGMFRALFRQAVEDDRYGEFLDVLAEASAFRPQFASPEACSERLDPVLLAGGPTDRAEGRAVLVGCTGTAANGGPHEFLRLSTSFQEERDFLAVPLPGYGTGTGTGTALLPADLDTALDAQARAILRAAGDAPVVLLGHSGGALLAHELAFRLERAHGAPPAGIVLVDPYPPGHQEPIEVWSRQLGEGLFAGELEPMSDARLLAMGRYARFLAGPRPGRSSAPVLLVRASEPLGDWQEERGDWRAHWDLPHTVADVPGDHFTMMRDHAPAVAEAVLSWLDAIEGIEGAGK

Substance	substrate	pH	temperature	setting	with	Km [µM]
enzyme (Trypanosoma brucei, UniProt Q57W34)	CC(=O)N[C@H]1[C@H](O[C@H]2[C@H](O)[C@@H](NC(C)=O)[C@@H](OP(=O)(O)OP(=O)(O)OCC[C@@H](C)CC/C=C(/C)CC/C=C(/C)CCC=C(C)C)O[C@@H]2CO)O[C@H](CO)[C@@H](O[C@@H]2O[C@H](CO)[C@@H](O)[C@H](O)[C@@H]2O)[C@@H]1O	pH 7.5	–	–	–	8.8
B1 (SULT1A3)	O=C(O[C@@H]1Cc2c(O)cc(O)cc2O[C@@H]1c1cc(O)c(O)c(O)c1)c1cc(O)c(O)c(O)c1	pH 7.4	–	not purified	–	2.29
B2 (PPIP5K2)	O=P(O)(O)O[C@@H]1[C@@H](OP(=O)(O)O)[C@@H](OP(=O)(O)O)[C@@H](OP(=O)(O)OP(=O)(O)O)[C@H](OP(=O)(O)O)[C@H]1OP(=O)(O)O	–	–	–	–	0.11
B3 (enzyme)	O=[N+]([O-])c1ccc(O[C@H]2O[C@H](CS(=O)(=O)O)[C@@H](O)[C@H](O)[C@H]2O)cc1	–	–	–	–	210
SLC15A1 (Homo sapiens, UniProt P46059)	CCC(CC)[C@H](NC(C)=O)[C@@H]1[C@H](O)[C@@H](C(=O)OCCOC(=O)[C@@H](N)C(C)C)C[C@H]1NC(=N)N	pH 6	–	not purified	–	4230
CYP2D6 (Homo sapiens, UniProt P10635)	CC(C)(C)NC(CO)c1cc(Cl)c(N)c(C(F)(F)F)c1	pH 7.4	37 °C	not purified	–	124
B4 (TENT2)	Nc1ncnc2c1ncn2[C@@H]1O[C@H](COP(=O)(O)OP(=O)(O)OP(=O)(O)O)[C@@H](O)[C@H]1O	pH 8	37 °C	–	Mg2+	0.229
B5 (FNO G29S)	NC(=O)C[n+]1cccc(C(N)=O)c1	pH 8	25 °C	–	F420H2 40 µM	18000
B6 (enzyme)	Cc1c(N)nc([C@H](CC(N)=O)NC[C@H](N)C(N)=O)nc1C(=O)N[C@H](C(=O)N[C@H](C)[C@@H](O)[C@H](C)C(=O)N[C@H](C(=O)NCCc1nc(-c2nc(C(=O)NCCCCNC(=N)N)cs2)cs1)[C@@H](C)O)[C@@H](O[C@@H]1O[C@@H](CO)[C@@H](O)[C@H](O)[C@@H]1O[C@H]1O[C@H](CO)[C@@H](O)[C@H](OC(N)=O)[C@@H]1O)c1c[nH]cn1	pH 7.5	30 °C	–	–	15
enzyme (Streptomyces venezuelae, UniProt Q9ZGI2)	CC[C@H](O)[C@H](C)/C=C/C(=O)[C@H](C)C[C@H](C)[C@H](OC)[C@@H](C)C(=O)SCCNC(C)=O	–	–	–	–	1040
curN (Lyngbya majuscula, UniProt Q6DND9)	CC1=[N+]2C(=C(CCl)c3ccc(C)n3[B-]2(F)F)C=C1	pH 8	30 °C	–	–	0.23
B7 (protein)	N[C@@H](Cc1ccc(O)c(Cl)c1)C(=O)O	pH 7.4	60 °C	–	–	5
B8 (AK1)	Nc1ccn(C2OC(COP(=O)(O)O)C(O)C2O)c(=O)n1	–	37 °C	–	ATP 1 mM	3000
enzyme (Astragalus mongholicus, UniProt A0A977WMR2)	CC(C)(O)[C@@H]1CC[C@](C)([C@H]2[C@@H](O)C[C@@]3(C)[C@@H]4C[C@H](O[C@@H]5O[C@H](CO)[C@@H](O)[C@H](O)[C@H]5O)[C@H]5C(C)(C)[C@@H](O)CC[C@@]56C[C@@]46CC[C@]23C)O1	–	–	–	–	86
B9 (CMPK1)	Nc1ccn(C2OC(COP(=O)(O)O)C(O)C2O)c(=O)n1	–	37 °C	–	ATP 1 mM	20
B10 (genB3)	CN[C@@H]1[C@@H](O)[C@@H](O[C@@H]2[C@@H](O)[C@H](O[C@H]3O[C@H](CN)[C@@H](O)[C@H](OP(=O)(O)O)[C@H]3N)[C@@H](N)C[C@H]2N)OC[C@]1(C)O	–	30 °C	–	–	500
B11 (KMO)	Nc1ccccc1C(=O)CC(N)C(=O)O	–	37 °C	apparent, not purified	–	78

Excerpt of the above:
Substance	substrate	pH	temperature	setting	with	Km [µM]
B4 (TENT2)	Nc1ncnc2c1ncn2[C@@H]1O[C@H](COP(=O)(O)OP(=O)(O)OP(=O)(O)O)[C@@H](O)[C@H]1O	pH 8	37 °C	–	Mg2+	0.229
B5 (FNO G29S)	NC(=O)C[n+]1cccc(C(N)=O)c1	pH 8	25 °C	–	F420H2 40 µM	18000
